Experimental data pooled from the literature.
Each line is one published result; not all experiments were run side by side. Values joined by “and” are separate records of one study, mostly repeats; a detail may differ.

| SMILES | cell line | test | test system | setting | how to read | endpoint | value |
| --- | --- | --- | --- | --- | --- | --- | --- |
| Clc1nc(NCc2ccco2)c2[nH]cnc2n1 | iPSC-derived cardiomyocytes | RNA-seq, item: AFMID chr17 exon ending 78204900 | – | unit not given | relative to: DMSO minus compound | ΔPSI | 0.228 |
| Nc1ncnc2c1ncn2[C@@H]1O[C@H](CO)[C@@H](O)[C@H]1O | activated human T cells | – | – | 50 µM, unit not given | relative to: DMSO | dihydroorotate level | 7.2 and 6.7 and 6.6 and 8.4 and 8.3 |
| CC(C)C[C@H](NC(=O)[C@H](CCc1ccccc1)NC(=O)CN1CCOCC1)C(=O)N[C@@H](Cc1ccccc1)C(=O)N[C@@H](CC(C)C)C(=O)[C@@]1(C)CO1 | BT-16 | cell viability, MTT | – | 10 µM, 72 h | – | inhibition | 92.5% |
| Cn1cc(Nc2nccc(-c3ccc4c(c3)CN(C3COC3)CC[C@H]4NC(=O)c3cn(C(C)(C)C)nn3)n2)cn1 | mouse splenic B cells | item: eNOS signalling | – | 30 mg/kg, IgD-activated in vivo | relative to: vehicle, direction not given | pathway activation z-score | 4.03 |
| Cn1cc(-c2ccc(-c3cncc(Cl)c3N3CCC4(CCNC4=O)CC3)cc2)cn1 | COLO 205 | gene expression, microarray, item: HIVEP2 mRNA | – | concentration not given, 2 h | relative to: untreated cells | log2 fold change | 2.15 |
| CC(C)(C)NC(=O)[C@@H]1CN(Cc2cccnc2)CCN1C[C@@H](O)C[C@@H](Cc1ccccc1)C(=O)N[C@H]1c2ccccc2C[C@H]1O | ΔE-expressing cells | ΔE mislocalization, high-content imaging | – | – | – | maximal efficacy | inactive |
| CCn1cc(-c2cc(Cn3ccnc3)cc3c2CCN([C@H](c2cc(OC)ccn2)C2CC2)C3=O)c(C(F)(F)F)n1 | Calu-3 | cell growth, inhibitor | – | 120 h | – | EC50 | 24.6 µM |
| Cc1cccc(-c2[nH]c(CNc3ccccc3F)nc2-c2ccc3ncnn3c2)n1 | bone marrow CD138+ myeloma cells | XTT | – | 1.8 µM, mean of three patients | – | viability | 7% |
| COc1cnc2cccc(N3CCc4c(cc(Cn5ccnc5C)cc4-c4cn(C)nc4C(F)(F)F)C3=O)c2c1 | C32 | cell growth, inhibitor | – | 120 h | – | EC50 | 26.6 µM |
| Cc1cc(Nc2ncc(Cl)c(Nc3ccccc3S(=O)(=O)C(C)C)n2)c(OC(C)C)cc1C1CCNCC1 | CLB-BAR | phosphoproteomics LC-MS/MS, item: ATXN1L phosphorylation | – | 200 nM, 60 min | relative to: untreated | log2 fold change | -4.19 |
| CC(C)NCC(O)c1ccc(O)c(O)c1 (centres unmarked) | mouse ventricular cardiomyocytes | – | – | dose not given, 0.319 s | – | sarcomere length | 1.8 µm |
| COc1cccc2c1C(=O)c1c(O)c3c(c(O)c1C2=O)C[C@@](O)(C(=O)CO)C[C@@H]3O[C@H]1C[C@H](N)[C@@H](O)[C@H](C)O1 | BT-16 | cell viability, MTT | – | 10 µM, 72 h | – | inhibition | 89.2% |
| CCc1cnc(N2CCC(c3nc(COc4ccc(-n5cnnn5)cc4)cs3)CC2)nc1 | HEK293T | RNA-seq, item: PON2 mRNA | – | 10 µM, 6 h | relative to: vehicle | log2 fold change | -0.116 |
| CCCCCCOC(=O)[C@]1(O)C[C@@H]2O[C@@]1(C)n1c3ccccc3c3c4c(c5c6ccccc6n2c5c31)C(=O)NC4 | SK-OV-3 | ATP | 3D gellan gum culture | 0.01 µM, 4 days | relative to: untreated | relative cell number | 82.4% |
| Oc1nc2nonc2cc1Nc1ccccc1F | L6 | – | – | concentration not given | – | activity | inactive |
| C=CC(=O)N1[C@@H](c2ccc3c(c2)OCO3)c2[nH]c3ccccc3c2C[C@H]1C(=O)NC | rat DRG neurons | – | – | 10 µM, 48 h, together with: vincristine 40 nM | – | mean neuron degeneration | 21.1% |
| COc1cccc2c1C(=O)c1c(O)c3c(c(O)c1C2=O)C[C@@](O)(C(=O)CO)C[C@@H]3O[C@H]1C[C@H](N)[C@H](O)[C@H](C)O1 | HeLa and Vero | MTT | – | – | relative to: CC50 Vero over EC50 HeLa | selectivity index | 1.75 |
| COc1cc2ncnc(Nc3ccc(Oc4ccccc4)c(C)c3C)c2cc1OC | MeWo (NF1 mutant) | resazurin | – | 0.3 µM, 72 h, together with: trametinib | relative to: DMSO | viability | 95.7% |
| CC(C)n1c(/C=C/C(O)CC(O)CC(=O)O)c(-c2ccc(F)cc2)c2ccccc21 (centres unmarked) | BT-16 | cell viability, MTT | – | 10 µM, 72 h | – | inhibition | 92.9% |
| O=C(/C=C/C=C/C=C/C1CCCCC1)NC1=C[C@@](O)(/C=C/C=C/C=C/C(=O)NC2=C(O)CCC2=O)[C@@H]2O[C@@H]2C1=O | SW1463 | cell growth, CellTiter-Glo | – | 78 h | – | GI50 | 20.9 µM |
